Measured values collected from several papers.
Compare with care: the assays were run in different laboratories. ± marks the error that the study gave.

For `COc1cc2cc(-c3ccc(CC(=O)Nc4cc(C(C)(C)C(F)(F)F)no4)cn3)cnc2cc1OC`, “progressive disease as best response” read 0% (RECIST v1.1; RET-altered advanced solid tumour patients; oral, 100 mg once daily, phase I).
Under “food intake increase”, `CCCCCCCC(=O)OC[C@H](NC(=O)[C@H](CO)NC(=O)CN)C(=O)N[C@@H](Cc1ccccc1)C(=O)N[C@@H](CC(C)C)C(=O)N[C@@H](CO)C(=O)N1CCC[C@H]1C(=O)N[C@@H](CCC(=O)O)C(=O)N[C@@H](Cc1c[nH]cn1)C(=O)N[C@@H](CCC(N)=O)C(=O)N[C@@H](CCCNC(=N)N)C(=O)N[C@H](C(=O)N[C@@H](CCC(N)=O)C(=O)N[C@@H](CCC(N)=O)C(=O)N[C@@H](CCCNC(=N)N)C(=O)N[C@@H](CCCCN)C(=O)N[C@@H](CCC(=O)O)C(=O)N[C@@H](CO)C(=O)N[C@@H](CCCCN)C(=O)N[C@@H](CCCCN)C(=O)N1CCC[C@H]1C(=O)N1CCC[C@H]1C(=O)N[C@@H](C)C(=O)N[C@@H](CCCCN)C(=O)N[C@@H](CC(C)C)C(=O)N[C@@H](CCC(N)=O)C(=O)N1CCC[C@H]1C(=O)N[C@@H](CCCNC(=N)N)C(=O)O)C(C)C` is recorded as ~86% (C57BL/6N mice, male; subcutaneous, 2 mg/kg, 2 h, standard chow; reference: saline).
The ED50 of `CS(=O)(=O)CCNCc1ccc(-c2ccc3ncnc(Nc4ccc(OCc5cccc(F)c5)c(Cl)c4)c3c2)o1` is reported as 125 mg/kg (tumour growth; A498 xenograft, mouse; oral, daily, 21 days).
For `c1ccc(-c2n[nH]cc2-c2ccnc3ccccc23)nc1`, “log2 fold change” read 1.25 (kinase binding, competitor, MIB/MS competition, refers to: MCK1; Candida albicans cell lysate; 1 µM; reference: DMSO).
For `CN(C)C(=O)Oc1cccc([N+](C)(C)C)c1`, the train-of-four ratio was 95.9 (neuromuscular block reversal; rat; dose not given, 14 (unit not given), added: cisatracurium; reference: T1 twitch).
`CCCCC1(CCCC)CN(c2ccccc2)c2cc(SC)c(OCC(=O)N[C@@H](C(=O)NCC(=O)O)c3ccccc3)cc2S(=O)(=O)C1` — result for “Shp mRNA level”: “no effect” (qPCR; male mice, ileum; 1 mg/kg, after mixed meal tolerance test; reference: PBS).
Under “negative activation entropy”, `[Cl-].[Cl-].[Pt+2].[Ru+2].c1ccc(-c2nc3cc4ccccc4cc3nc2-c2ccccn2)nc1.c1cnc2c(c1)ccc1cccnc12.c1cnc2c(c1)ccc1cccnc12` is recorded as 157 ± 10 J/(mol·K) (chloride substitution, UV-vis kinetics; aqueous buffer; concentration not given, pH 7.2, first substitution step, added: guanosine 5'-monophosphate).
`N#Cc1ccc2c(c1)[C@H]1CCCN(C(=O)c3ccc4[nH]cnc4c3)[C@H]1C2`: “ACTH change from baseline” 6.2 pmol/L (human clinical trial; oral, 240 mg once daily).
`COc1ccc(F)cc1C(=O)NCc1ccc(-c2nn([C@@H](C)C(F)(F)F)c(N)c2C(N)=O)cc1`: “overall response rate” 63% (CLL/SLL patients; dose not given, all efficacy-evaluable patients).
`CC(C)NCC(O)c1ccc(O)c(O)c1` (stereo not drawn) has a sarcomere length of 1.66 µm (ventricular cardiomyocytes, C57BL/6 mouse; dose not given, 0.264 s).
For `C=C1CC[C@H](OCCCNC(=O)CCOCCOCCOCCOCCOCCOCCOCCOCCOCCOCCOCCOCCOCCOCCOCCOCCOCCOCCOCCOCCOCCOCCOCCOCCOCCOCCOCCOCCOCCOCCOCCOCCOCCOCCOCCOCCNC(=O)CCN2C(=O)CC(SC[C@H](NC(=O)[C@H](CCCNC(=N)N)NC(=O)[C@@H]3CCCN3C(=O)[C@H](CCC(N)=O)NC(=O)[C@H](CC(C)C)NC(=O)[C@H](CCCCN)NC(=O)[C@H](C)NC(=O)[C@@H]3CCCN3C(=O)[C@@H]3CCCN3C(=O)[C@H](CCCCN)NC(=O)[C@H](CCCCN)NC(=O)[C@H](CO)NC(=O)[C@H](CCC(=O)O)NC(=O)[C@H](CCCCN)NC(=O)[C@H](CCCNC(=N)N)NC(=O)[C@H](CCC(N)=O)NC(=O)[C@H](CCC(N)=O)NC(=O)[C@@H](NC(=O)[C@H](CCCNC(=N)N)NC(=O)[C@H](CCC(N)=O)NC(=O)[C@H](Cc3c[nH]cn3)NC(=O)[C@H](CCC(=O)O)NC(=O)[C@@H]3CCCN3C(=O)[C@H](CO)NC(=O)[C@H](CC(C)C)NC(=O)[C@H](Cc3ccccc3)NC(=O)[C@H](CNC(=O)CCCCCCC)NC(=O)[C@H](CO)NC(=O)CN)C(C)C)C(=O)O)C2=O)C/C1=C/C=C1\CCC[C@]2(C)[C@@H]([C@H](C)CCCC(C)(C)O)CC[C@@H]12` (stereo partly drawn), “food intake decrease” read 5% (C57BL/6J mice, LLC tumour-induced cachexia; subcutaneous, 0.25 mg/kg daily, 2 weeks; reference: tumour-bearing vehicle).
For `C=CCn1c(=O)c2cnc(Nc3ccc(N4CCN(C)CC4)cc3)nc2n1-c1ccc2c(n1)[C@@](O)(CC)CC2`, “tumour volume difference” read 711 ± 50.3 mm3 (NCI-H1944 xenograft, NOD/SCID mice; oral, 80 mg/kg, day 28, once daily days 0-9 and 18-27).
Under “delta delta Ct”, `COc1ccc(-c2cncc(N[C@@H](C)c3cccc(NC(=O)c4cncc(C)c4)c3)n2)cc1OC` is recorded as 0.0808 (refers to: rno-miR-194-5p; rat SU5416/hypoxia model, lung; dose not given, unit not given; reference: SU5416/hypoxia vehicle).
`O=C(Nc1c(Cl)cncc1Cl)c1ccc(OC(F)F)c(OCC2CC2)c1` — result for “GvHD score difference”: -2.23 (NCG mice, human PBMC GvHD; 1 mg/kg once daily, day 33; reference: vehicle, direction not given).
The IC50 of `CC#Cc1cncc(-c2ccc3c(c2)[C@@]2(N=C(C)C(N)=N2)[C@]2(CC[C@H](OC)CC2)C3)c1` is reported as 0.8 nM (brain Aβ40 reduction; beagle dog; oral, free brain concentration basis).
With `CC1(C)CCC(CN2CCN(c3ccc(C(=O)NS(=O)(=O)c4ccc(NCC5CCOCC5)c([N+](=O)[O-])c4)c(Oc4cnc5[nH]ccc5c4)c3)CC2)=C(c2ccc(Cl)cc2)C1` the EC50 was 83 nM (cell killing, flow cytometry PI exclusion; canine blood CD21+ B cells, dog 33; 24 h).
With `C[C@@H](NC(=O)N1C(=O)[C@H](Cc2ccnc(N)c2)[C@H]1C(=O)O)C1CCCCC1` the ACT Emax was 125 s (human; iv infusion, 2.25 mg/kg/h, 24 h).
For `OC(CCN1CCCCC1)(c1ccccc1)C1CC2C=CC1C2` (stereo not drawn), “EEG Beta3-power Fz-Cz” read 1.9 µV² (resting-state EEG; healthy elderly humans; oral, 2 mg, eyes closed, LS mean).

Excerpt of the above:
With `CC1(C)CCC(CN2CCN(c3ccc(C(=O)NS(=O)(=O)c4ccc(NCC5CCOCC5)c([N+](=O)[O-])c4)c(Oc4cnc5[nH]ccc5c4)c3)CC2)=C(c2ccc(Cl)cc2)C1` the EC50 was 83 nM (cell killing, flow cytometry PI exclusion; canine blood CD21+ B cells, dog 33; 24 h).
